Measured values collected from several papers.
Lines come from different studies, so protocols differ.
Organism: Escherichia coli

CC[C@H]1OC(=O)[C@H](C)[C@@H](OC(=O)Cc2ccc(C(F)(F)F)cc2)[C@H](C)[C@@H](O[C@@H]2O[C@H](C)C[C@H](N(C)C)[C@H]2O)[C@](C)(OC)C[C@@H](C)C(=O)[C@H](C)[C@@H](O)[C@]1(C)O — MIC (microbial growth; ATCC25922): > 32 µg/mL
C#CCO/N=C(\C(=O)N[C@@H]1C(=O)N(OS(=O)(=O)O)C1(C)C)c1csc(N)n1 — MIC (agar dilution; 16-1, ESBL-producing): 0.25 µg/mL
C=CCOc1c(C)c(OC)c(C(=O)/C=C/c2ccccc2)c(OCC=C)c1C — MIC (microbial growth, broth dilution; ATCC25922): 5000 µg/mL
C#CCNC(=O)C(C)(C)O/N=C(\C(=O)N[C@@H]1C(=O)N(S(=O)(=O)O)[C@H]1C)c1csc(N)n1 — MIC (microbial growth, agar dilution; ATCC25): 2 µg/mL
CC[C@H]1OC(=O)[C@H](C)[C@@H](OC(=O)Cc2ccc3c(c2)OCO3)[C@H](C)[C@@H](O[C@@H]2O[C@H](C)C[C@H](N(C)C)[C@H]2O)[C@](C)(OC)C[C@@H](C)C(=O)[C@H](C)[C@@H](O)[C@]1(C)O — MIC (DSM 30083; compound alone): > 64 µM
CCCCCCCCCCCC(=O)Oc1c(C)c(OC)c2c(/C=C/c3ccccc3)c(CCCCCCCCCC)c(=O)oc2c1C — MIC (microbial growth, broth dilution; ATCC25922): 5000 µg/mL
CCC(CC)c1cc(CCN2CCCN(S(C)(=O)=O)CC2)nc(-c2ccccn2)n1 — MIC (microbial growth, broth dilution; ATCC25922): > 64 µg/mL
CC(CC(=O)O)c1n[nH]c2nc(N)[nH]c(=O)c2c1=O (centres unmarked) — MIC (microbial growth, broth dilution; BW25113; 18 h): > 100 µg/mL
N=C(N)NCCC[C@@H]1NC(=O)[C@H](CCCNC(=N)N)NC(=O)[C@@H](CCCNC(=N)N)NC(=O)[C@@H](CCCNC(=N)N)NC(=O)[C@@H](C(c2ccccc2)c2ccccc2)NC(=O)[C@@H](Cc2c[nH]c3ccccc23)NC(=O)[C@@H](C(c2ccccc2)c2ccccc2)NC1=O — MIC (ATCC 25922): 16 µg/mL
CN[C@H](CC(C)C)C(=O)N[C@H]1C(=O)N[C@@H](CC(N)=O)C(=O)N[C@H]2C(=O)N[C@H]3C(=O)N[C@H](C(=O)N[C@H](C(=O)N[C@@H](CCCNC(=N)N)C(N)=O)c4cc(O)cc(O)c4-c4cc3ccc4O)[C@H](O)c3ccc(c(Cl)c3)Oc3cc2cc(c3O[C@@H]2O[C@H](CO)[C@@H](O)[C@H](O)[C@H]2O[C@H]2C[C@](C)(NCc3ccc(OCc4cn(CC(=O)N[C@H](C(=O)N[C@@H](CCN)C(=O)N[C@H]5CCNC(=O)[C@H]([C@@H](C)O)NC(=O)[C@H](CCN)NC(=O)[C@H](CCN)NC(=O)[C@H](CC(C)C)NC(=O)[C@@H](CC(C)C)NC(=O)[C@H](CCN)NC5=O)[C@@H](C)O)nn4)c(OC)c3)[C@H](O)[C@H](C)O2)Oc2ccc(cc2Cl)[C@H]1O — MIC (broth microdilution; ATCC 25922; 18 to 20 h): 16 µg/mL
CC[C@H](C)[C@H](NC(=O)[C@@H](CCCNC(=N)N)NC(=O)[C@H](CCCNC(=N)N)NC(=O)[C@@H]1CCCN1C(=O)[C@@H]1CCCN1C(=O)[C@H](CCCCN)NC(=O)[C@@H]1CCCN1C(=O)[C@H](CCCNC(=N)N)NC(=O)[C@@H]1CCCN1C(=O)[C@H](CC(C)C)NC(=O)[C@H](Cc1ccc(O)cc1)NC(=O)[C@@H]1CCCN1C(=O)[C@@H]1CCCN1C(=O)[C@H](CCCCN)NC(=O)[C@H](CC(=O)O)NC(=O)[C@@H](N)C(C)C)C(=O)N[C@@H](Cc1ccc(O)cc1)C(=O)N[C@@H](CC(N)=O)C(=O)N[C@H](CCCNC(=N)N)C(N)=O — MIC (broth microdilution; MC4100; 18 h, 37 °C, 25% MHB2): 8 µg/mL
CC[C@H]1OC(=O)[C@H](C)[C@@H](OC(=O)Cc2c(F)cc([N+](=O)[O-])cc2F)[C@H](C)[C@@H](O[C@@H]2O[C@H](C)C[C@H](N(C)C)[C@H]2O)[C@](C)(OC)C[C@@H](C)C(=O)[C@H](C)[C@@H](O)[C@]1(C)O — MIC (DSM 30083; added: colistin sulfate at 0.5 x MIC): 0.5 µM
CCCCCCCCCc1nc2cc(Cl)ccc2c(=O)n1CCN — MIC (MG1655): > 100 µM
COc1cc(C(=O)Nc2ccc(C(=O)O)c(O)c2)ccc1NC(=O)c1ccc(NC(=O)[C@H](Cc2c[nH]nn2)NC(=O)c2ccc(NC(=O)/C(C)=C/c3ccc(O)cc3)cc2)cc1 — MIC (broth microdilution; ciprofloxacin-sensitive): 0.25 µg/mL
C#CCOc1ccc(CN[C@@]2(C)C[C@H](O[C@H]3[C@H](Oc4c5cc6cc4Oc4ccc(cc4Cl)[C@@H](O)[C@@H](NC(=O)[C@@H](CC(C)C)NC)C(=O)N[C@@H](CC(N)=O)C(=O)N[C@H]6C(=O)N[C@H]4C(=O)N[C@H](C(=O)N[C@H](C(=O)N[C@@H](CCCNC(=N)N)C(N)=O)c6cc(O)cc(O)c6-c6cc4ccc6O)[C@H](O)c4ccc(c(Cl)c4)O5)O[C@H](CO)[C@@H](O)[C@@H]3O)O[C@@H](C)[C@H]2O)cc1OC — MIC (broth microdilution; ATCC 35218, cation-adjusted Mueller-Hinton broth; 18 to 20 h, 37 °C, 0.002% polysorbate 80): 8 µg/mL
Cn1nc(CC(=O)O)c(=O)c2c(=O)[nH]c(N)nc21 — MIC (microbial growth, broth dilution; BW25113; 18 h): > 100 µg/mL
CN[C@H](CC(C)C)C(=O)N[C@H]1C(=O)N[C@@H](CC(N)=O)C(=O)N[C@H]2C(=O)N[C@H]3C(=O)N[C@H](C(=O)N[C@H](C(=O)NCc4cn(CC(=O)N[C@H](C(=O)N[C@@H](CCN)C(=O)N[C@H]5CCNC(=O)[C@H]([C@@H](C)O)NC(=O)[C@H](CCN)NC(=O)[C@H](CCN)NC(=O)[C@H](CC(C)C)NC(=O)[C@@H](CC(C)C)NC(=O)[C@H](CCN)NC5=O)[C@@H](C)O)nn4)c4cc(O)cc(O)c4-c4cc3ccc4O)[C@H](O)c3ccc(c(Cl)c3)Oc3cc2cc(c3O[C@@H]2O[C@H](CO)[C@@H](O)[C@H](O)[C@H]2O[C@H]2C[C@](C)(N)[C@H](O)[C@H](C)O2)Oc2ccc(cc2Cl)[C@H]1O — MIC (broth microdilution; ATCC 35218, cation-adjusted Mueller-Hinton broth; 18 to 20 h, 37 °C, 0.002% polysorbate 80): 16 µg/mL
COc1ccc2ccc(O)c(/C=N/[C@H]3CCCC[C@H]3/N=C/c3cccc(OC)c3O)c2c1 — MIC (microbial growth, broth dilution; clinical isolate): > 40 µM
CCCCCCCC(=O)N[C@@H](CCN)C(=O)N[C@H](C(=O)N[C@@H](CCN)C(=O)N[C@H]1CCNC(=O)[C@H]([C@@H](C)O)NC(=O)[C@H](CCN)NC(=O)[C@H](CCN)NC(=O)[C@H](CCCCCC)NC(=O)[C@@H](Cc2ccccc2)NC(=O)[C@H](CCN)NC1=O)[C@@H](C)O — MIC (broth microdilution; ATCC 25922): < 0.125 µg/mL
COc1c(NC(=O)c2ccc(NC(=O)c3ccc(NC(=O)[C@H](Cc4c[nH]nn4)NC(=O)c4ccc(NC(=O)/C(C)=C/c5ccc(O)cc5)cc4)cc3)cc2O)ccc(C(=O)O)c1O — MIC (broth microdilution; DSM 1116): 0.125 µg/mL
COc1ccc2ccc(O)c(/C=N/[C@H]3CCCC[C@H]3/N=C/c3ccccc3O)c2c1 — MIC (microbial growth, broth dilution; clinical isolate): > 40 µM
CC(=O)NC[C@H]1CN(c2ccc(N3CCN(C(=O)CN)CC3)c(F)c2)C(=O)O1 — MIC (microbial growth, broth dilution; K12, MG1655): > 200 µM
COc1nc(C(=O)Nc2ccc(C(=O)O)c(O)c2OC)ccc1NC(=O)c1ccc(NC(=O)[C@H](Cc2c[nH]nn2)NC(=O)c2ccc(NC(=O)/C(C)=C/c3ccc(O)cc3)cc2)cc1 — MIC (broth microdilution; DSM 1116): 0.063 µg/mL
O=CCNCCOn1c(=O)n(OCCNCCO)c(=O)n(OCCNCCOn2c(=O)n(OCCNCCO)c(=O)n(OCCNCCO)c2=O)c1=O — MIC (microbial growth, broth dilution): 2 µg/mL
COc1cc(C(=O)Nc2ccc(C(=O)O)c(O)c2OC)ccc1NC(=O)c1ccc(NC(=O)[C@H](Cc2c[nH]nn2)NC(=O)c2ccc(NC(=O)/C(C)=C/c3ccc(O)cc3)cc2)cc1 — MIC (broth microdilution; DSM 1116): 0.125 µg/mL
CC[C@H]1OC(=O)[C@H](C)[C@@H](O[C@H]2C[C@@](C)(OC)[C@@H](O)[C@H](C)O2)[C@H](C)[C@@H](O[C@@H]2O[C@H](C)C[C@H](N(C)C)[C@H]2O)[C@](C)(OC)C[C@@H](C)C(=O)[C@H](C)[C@@H](O)[C@]1(C)O — MIC (tolC): 8 µg/mL
O=[N+]([O-])c1cc(Cl)c2cccnc2c1O — MIC (microbial growth, broth dilution; ATCC25922): 2 µg/mL
COc1cc(C(=O)Nc2ccc(C(=O)O)cc2)ccc1NC(=O)c1ccc(NC(=O)[C@H](Cc2c[nH]nn2)NC(=O)c2ccc(NC(=O)/C(C)=C/c3ccc(O)cc3)cc2)cc1 — MIC (broth microdilution; ciprofloxacin-resistant): 32 µg/mL
CC[C@H]1OC(=O)[C@H](C)[C@@H](OC(=O)Cc2c(F)cccc2F)[C@H](C)[C@@H](O[C@@H]2O[C@H](C)C[C@H](N(C)C)[C@H]2O)[C@](C)(OC)C[C@@H](C)C(=O)[C@H](C)[C@@H](O)[C@]1(C)O — MIC (microbial growth; ATCC25922): > 32 µg/mL
COc1cc(C(=O)O)ccc1NC(=O)c1ccc(NC(=O)c2ccc(NC(=O)[C@H](Cc3c[nH]nn3)NC(=O)c3ccc(NC(=O)/C(C)=C/c4ccc(O)cc4)cc3)cc2)c(OC)c1O — MIC (broth microdilution; DSM 1116): 0.25 µg/mL
CC1(C)C(NC(=O)C(=NOC2(C(=O)O)CC2)c2csc(N)n2)C(=O)N1OS(=O)(=O)O (centres unmarked) — MIC (agar dilution; 16-1, ESBL-producing): 0.06 µg/mL
COc1nc(C(=O)O)ccc1NC(=O)c1ccc(NC(=O)c2ccc(NC(=O)[C@H](Cc3c[nH]nn3)NC(=O)c3ccc(NC(=O)/C(C)=C/c4ccc(O)cc4)cc3)cc2)c(OC)c1O — MIC (broth microdilution; ciprofloxacin-resistant): 8 µg/mL
CCCCCCCCCCCC[N+](C)(C)CCCCOc1cc(OCCCC[N+](C)(C)CCCCCCCCCCCC)cc(OCCCC[N+](C)(C)CCCCCCCCCCCC)c1.[Br-].[Br-].[Br-] — MIC (MC4100): 4 µM
COc1nc(C(=O)Nc2ccc(C(=O)O)nc2OC)ccc1NC(=O)c1ccc(NC(=O)[C@H](Cc2c[nH]nn2)NC(=O)c2ccc(NC(=O)/C(C)=C/c3ccc(O)cc3)cc2)cc1 — MIC (broth microdilution; BW25113): 1 µg/mL
CCCCCCn1cc[n+](CCCCCCOc2cc(OCCCCCC[n+]3ccn(CCCCCC)c3)cc(OCCCCCC[n+]3ccn(CCCCCC)c3)c2)c1.[Br-].[Br-].[Br-] — MIC (MC4100): 0.5 µM

For quick reference, copied from above:
CCCCCCCCCCCC(=O)Oc1c(C)c(OC)c2c(/C=C/c3ccccc3)c(CCCCCCCCCC)c(=O)oc2c1C — MIC (microbial growth, broth dilution; ATCC25922): 5000 µg/mL
CCCCCCCC(=O)N[C@@H](CCN)C(=O)N[C@H](C(=O)N[C@@H](CCN)C(=O)N[C@H]1CCNC(=O)[C@H]([C@@H](C)O)NC(=O)[C@H](CCN)NC(=O)[C@H](CCN)NC(=O)[C@H](CCCCCC)NC(=O)[C@@H](Cc2ccccc2)NC(=O)[C@H](CCN)NC1=O)[C@@H](C)O — MIC (broth microdilution; ATCC 25922): < 0.125 µg/mL
CC[C@H]1OC(=O)[C@H](C)[C@@H](O[C@H]2C[C@@](C)(OC)[C@@H](O)[C@H](C)O2)[C@H](C)[C@@H](O[C@@H]2O[C@H](C)C[C@H](N(C)C)[C@H]2O)[C@](C)(OC)C[C@@H](C)C(=O)[C@H](C)[C@@H](O)[C@]1(C)O — MIC (tolC): 8 µg/mL
